Measured values from different studies.
Each line is one published result; not all experiments were run side by side. “And” joins repeats or separate records; there may be more than shown. ± marks the error that the study gave.
Chain of UniProt P50750 (whole entry, looked up): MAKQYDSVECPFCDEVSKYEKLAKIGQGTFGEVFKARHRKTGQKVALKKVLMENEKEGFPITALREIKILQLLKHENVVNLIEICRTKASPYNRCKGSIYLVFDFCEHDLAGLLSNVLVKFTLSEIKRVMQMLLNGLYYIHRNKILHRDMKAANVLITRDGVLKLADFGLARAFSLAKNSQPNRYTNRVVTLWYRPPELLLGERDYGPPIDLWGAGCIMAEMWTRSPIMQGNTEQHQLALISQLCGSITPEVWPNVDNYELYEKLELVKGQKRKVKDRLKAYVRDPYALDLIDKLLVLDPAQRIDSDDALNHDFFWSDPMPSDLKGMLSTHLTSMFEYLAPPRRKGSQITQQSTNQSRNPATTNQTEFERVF
Chain of UniProt P29376 (whole entry, looked up): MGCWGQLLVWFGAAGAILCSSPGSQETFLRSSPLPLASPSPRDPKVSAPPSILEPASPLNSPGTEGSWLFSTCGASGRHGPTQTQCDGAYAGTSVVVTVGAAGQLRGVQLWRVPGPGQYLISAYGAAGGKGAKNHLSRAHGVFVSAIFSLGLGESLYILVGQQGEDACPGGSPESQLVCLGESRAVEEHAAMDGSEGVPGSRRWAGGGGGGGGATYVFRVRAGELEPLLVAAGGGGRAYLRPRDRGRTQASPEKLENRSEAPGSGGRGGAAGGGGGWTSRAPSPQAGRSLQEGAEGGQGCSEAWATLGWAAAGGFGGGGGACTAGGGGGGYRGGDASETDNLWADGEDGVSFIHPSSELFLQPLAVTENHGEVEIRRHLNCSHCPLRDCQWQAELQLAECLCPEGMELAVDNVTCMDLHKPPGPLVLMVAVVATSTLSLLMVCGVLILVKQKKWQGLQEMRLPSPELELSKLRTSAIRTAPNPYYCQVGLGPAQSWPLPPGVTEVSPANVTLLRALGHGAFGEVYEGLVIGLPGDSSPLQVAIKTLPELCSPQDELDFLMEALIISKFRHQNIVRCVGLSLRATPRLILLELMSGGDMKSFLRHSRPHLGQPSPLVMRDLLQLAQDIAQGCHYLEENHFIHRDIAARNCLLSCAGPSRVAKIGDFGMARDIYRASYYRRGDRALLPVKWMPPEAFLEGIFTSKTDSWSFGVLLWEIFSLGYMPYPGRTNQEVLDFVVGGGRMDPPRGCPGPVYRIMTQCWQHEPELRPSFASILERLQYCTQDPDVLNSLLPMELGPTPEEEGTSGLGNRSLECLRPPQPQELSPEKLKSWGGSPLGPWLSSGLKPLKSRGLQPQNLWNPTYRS

Structure (SMILES) | target or system | test | test system | setting | scale | quantity | result
CCCCCCCCCCCCCCCC(=O)N[C@@H](CCC(=O)NCCOCCOCCC(=O)NCCOCCOCCC(=O)NCCCC[C@H](NC(=O)[C@H](CC(=O)O)NC(=O)[C@H](CC(C)C)NC(=O)[C@H](Cc1ccc(O)cc1)NC(=O)[C@H](CCCCN)NC(=O)[C@H](CO)NC(=O)[C@H](Cc1ccc(O)cc1)NC(=O)[C@H](CC(=O)O)NC(=O)[C@H](CO)NC(=O)[C@@H](NC(=O)[C@H](Cc1ccccc1)NC(=O)[C@@H](NC(=O)CNC(=O)[C@H](CCC(N)=O)NC(=O)[C@@H](CO)NC(=O)[C@@H](N)Cc1c[nH]cn1)[C@@H](C)O)[C@@H](C)O)C(=O)N[C@@H](CCCNC(=N)N)C(=O)N[C@@H](CCCNC(=N)N)C(=O)N[C@@H](C)C(=O)N[C@@H](CCC(N)=O)C(=O)N[C@@H](CC(=O)O)C(=O)N[C@@H](Cc1ccccc1)C(=O)N[C@H](C(=O)N[C@@H](CCC(N)=O)C(=O)N[C@@H](Cc1c[nH]c2ccccc12)C(=O)N[C@@H](CC(C)C)C(=O)N[C@@H](CC(C)C)C(=O)N[C@@H](CC(N)=O)C(=O)N[C@H](C(=O)NCC(=O)NCC(=O)N1CCC[C@H]1C(=O)N[C@@H](CO)C(=O)N[C@@H](CO)C(=O)NCC(=O)N[C@@H](C)C(=O)N1CCC[C@H]1C(=O)N1CCC[C@H]1C(=O)N1CCC[C@H]1C(=O)N[C@@H](CO)C(N)=O)[C@@H](C)O)C(C)C)C(=O)O |  |  | rhesus monkey, female | subcutaneous, 20 µg/kg once daily, 28 days |  | creatinine | 47.4 ± 8.6 µmol/L
CCc1nn(C)c2nc(-c3ccc(C(=O)O)cc3)nc(NCc3ccccc3)c12 |  |  | NSG mice | dose not given, day 2 of treatment |  | body weight | 21.9 g and 22.7 g and 23.2 g
O=C(c1cc(Cc2n[nH]c(=O)c3ccccc23)ccc1F)N1CC(CNC2CC2)C1 |  |  | Wistar Han rat, female, blood | oral, 30 mg/kg daily, 4 weeks |  | haemoglobin | 13.1 ± 1.1 g/dL
CC(C)(C)C(=O)OCOP(=O)(OCOC(=O)C(C)(C)C)C1CCCN(O)C1=O (stereo not shown) | OVCAR-3 |  |  |  |  | TGI | > 100 µM
C=Cc1c(C)c2cc3nc(c(CC(=O)O)c4[nH]c(cc5nc(cc1[nH]2)C(C)=C5CC)c(C)c4C(=O)O)[C@@H](CCC(=O)NCCCC[C@H](NC(C)=O)C(=O)N[C@@H](Cc1ccccc1)C(=O)N[C@@H](Cc1ccccc1)C(=O)N[C@H](C(=O)N[C@@H](CC(C)C)C(=O)N[C@@H](CCCCN)C(=O)N[C@@H](CO)C(=O)NCC(=O)N[C@@H](CCC(N)=O)C(=O)N[C@@H](Cc1ccc(O)cc1)C(=O)N[C@@H](C)C(=O)N[C@@H](CO)C(=O)N[C@@H](Cc1ccc(O)cc1)C(=O)N[C@@H](Cc1c[nH]cn1)C(=O)N[C@@H](CS)C(=O)N[C@@H](Cc1c[nH]c2ccccc12)C(=O)N[C@@H](CS)C(=O)N[C@@H](Cc1c[nH]c2ccccc12)C(=O)N[C@@H](CCCNC(=N)N)C(=O)N[C@@H](CC(=O)O)C(=O)N1CCC[C@H]1C(=O)NCC(=O)N[C@@H](CCCNC(=N)N)C(=O)N[C@@H](CO)C(=O)NCC(=O)NCC(=O)N[C@@H](CO)C(=O)N[C@@H](CCCCN)C(N)=O)C(C)C)[C@@H]3C |  |  | mouse, blood | 24 h |  | blood concentration | 42800 ng/mL and 53600 ng/mL
CC(C)[C@H]1NC(=O)C[C@H]2/C=C/CCSSC[C@@H](NC1=O)C(=O)N[C@H](Cc1cccc3ccccc13)C(=O)NCC(=O)O2 | LTK (Homo sapiens, UniProt P29376) | enzyme activity, inhibitor |  | 10 µM |  | inhibition | 1.3%
CN(C)[C@H]1C[C@@]23CC[C@@]4(O2)C(=CC[C@]2(C)[C@@H](c5ccc6ccncc6c5)CC[C@H]24)C=C3[C@@H](O)[C@@H]1O | CDK9 (Homo sapiens, UniProt P50750) | ATP probe labelling, inhibitor, KiNativ profiling |  | 1 µM |  | inhibition | 1.1%
CC(C)[C@@H]1NC(=O)CNC(=O)[C@H](CC(N)=O)NC(=O)[C@H](CCCNC(=N)N)NC(=O)[C@H](Cc2ccc(O)cc2)NC(=O)[C@H](C(C)C)NC(=O)[C@@H](NC(=O)[C@@H](NC(=O)[C@H](CC(N)=O)NC(=O)[C@H](Cc2c[nH]c3ccccc23)NC(=O)[C@H](C)NC(=O)[C@H](Cc2ccccc2)NC(=O)CNC(=O)[C@H](CCCCN)NC(=O)[C@H](Cc2ccccc2)NC(=O)[C@H](Cc2ccccc2)NC(=O)[C@H](CCCCN)NC(=O)OCC2c3ccccc3-c3ccccc32)C(C)C)CSSC[C@@H](C(=O)N[C@@H](Cc2c[nH]cn2)C(=O)N[C@@H](CCCNC(=N)N)C(=O)N[C@@H](CCCNC(=N)N)C(=O)N[C@@H](C)C(=O)N[C@@H](CC(N)=O)C(N)=O)NC(=O)[C@H](C(C)C)NC(=O)[C@H](CCCNC(=N)N)NC1=O |  |  | ICR mouse | ip, 5 mg/kg | direction not given | tremor score | 0
Cc1nc2cccc(OCC(C)(C)C(=O)NC(C)C)c2c(N)c1C(=O)[O-].[Na+] | Salmonella typhimurium | Ames plate incorporation | TA1537 | 0.80 mg/plate, together with: with rat liver S9 |  | revertant colonies | 15 ± 3 colonies/plate
N#[11C]c1ccc(-c2csc(NN=C3CCCC3)n2)cc1 |  | radio-HPLC | C57BL/6 mouse, heart | intravenous, 37 MBq, 15 min |  | unchanged compound | 49.4% and 49%
CC(=O)N[C@H](C(=O)N[C@@H](CCCC(=O)OC(C)(C)C)C(=O)N[C@@H](CCC1CCCCC1)C(=O)N[C@@H](CC(=O)O)C(=O)COC(=O)c1c(C)cccc1C)C(C)(C)C |  |  | C57BL/6N mouse, female, whole blood | intraperitoneal, dose not given, 0.25 h |  | blood concentration | 369 µM and 410 µM
CSCC[C@H](NC(=O)CNC(=O)[C@H](CCCCN)NC(=O)[C@H](CC(C)C)NC(=O)[C@@H]1CCCN1C(=O)[C@H](CO)NC(=O)[C@H](Cc1c[nH]cn1)NC(=O)[C@H](Cc1c[nH]c2ccccc12)NC(=O)[C@H](CCCNC(=N)N)NC(=O)[C@H](CC(C)C)NC(=O)[C@H](CCCNC(=N)N)NC(=O)[C@H](Cc1c[nH]c2ccccc12)NC(=O)[C@H](CS)NC(=O)CCCCCNC(=O)CN1CCN(CC(=O)O)CCN(CC(=O)O)CCN(CC(=O)O)CC1)C(=O)O [copper-64 labelled] |  |  | male C57BL/6J mice, B16-F10 tumour, small intestine | intravenous, 1.85 MBq, 2 h |  | tissue uptake | 9.76 %ID/g
O=C1NC2(CC2)COc2ncc(F)cc2[C@H]2COCCN2c2ccn3ncc1c3n2 |  |  | Sprague-Dawley rat, male, kidneys | oral, 10 mg/kg/day, 4 weeks dosing, end of recovery |  | organ-to-body weight ratio | 0.676 ± 0.067%
CCCCCC[C@H]1C(=O)O[C@H](C)[C@H](NC(=O)c2cccc(NC=O)c2O)C(=O)O[C@@H](C)[C@@H]1OC(=O)CC(C)C |  |  | BALB/c mouse | 10 (unit not given) |  | LD50 | 6.13 mg/kg
COc1ccccc1-c1n[nH]c2nc(NC3CCN(C(=O)Cc4ccc(F)cc4F)CC3)ncc12 |  | bead binding, competition bead pull-down, refers to: LINJ.28.2610 | Leishmania donovani axenic amastigote extract | 10 µM | relative to: vehicle | relative abundance | 1.14
N=C(N)NCCC[C@@H](NC(=O)[C@H](N)Cc1c[nH]c2ccccc12)C(=O)N[C@H](CCCCN)C(=O)N[C@H](Cc1c[nH]c2ccccc12)C(=O)N[C@H](CCCNC(=N)N)C(=O)N[C@H](CCCCN)C(=O)N[C@H](Cc1c[nH]c2ccccc12)C(=O)N[C@H](CCCNC(=N)N)C(=O)N[C@H](CCCCN)C(=O)N[C@H](Cc1c[nH]c2ccccc12)C(=O)N[C@H](CCCNC(=N)N)C(=O)N[C@H](CCCCN)C(N)=O |  |  | mouse, serum | 20 mg/kg |  | Kim-1 level | 71.6 ng/mL

A few entries again:
Structure (SMILES) | target or system | test | test system | setting | scale | quantity | result
COc1ccccc1-c1n[nH]c2nc(NC3CCN(C(=O)Cc4ccc(F)cc4F)CC3)ncc12 |  | bead binding, competition bead pull-down, refers to: LINJ.28.2610 | Leishmania donovani axenic amastigote extract | 10 µM | relative to: vehicle | relative abundance | 1.14
